Experimental data collected from several papers.
Each line is one published result; not all experiments were run side by side. “And” joins repeats or separate records; there may be more than shown. ± marks the error that the study gave.
Astl: Astacin-like metalloendopeptidase (Astl, Mus musculus, UniProt Q6HA09)
Chain of UniProt Q6HA09 (whole entry, looked up): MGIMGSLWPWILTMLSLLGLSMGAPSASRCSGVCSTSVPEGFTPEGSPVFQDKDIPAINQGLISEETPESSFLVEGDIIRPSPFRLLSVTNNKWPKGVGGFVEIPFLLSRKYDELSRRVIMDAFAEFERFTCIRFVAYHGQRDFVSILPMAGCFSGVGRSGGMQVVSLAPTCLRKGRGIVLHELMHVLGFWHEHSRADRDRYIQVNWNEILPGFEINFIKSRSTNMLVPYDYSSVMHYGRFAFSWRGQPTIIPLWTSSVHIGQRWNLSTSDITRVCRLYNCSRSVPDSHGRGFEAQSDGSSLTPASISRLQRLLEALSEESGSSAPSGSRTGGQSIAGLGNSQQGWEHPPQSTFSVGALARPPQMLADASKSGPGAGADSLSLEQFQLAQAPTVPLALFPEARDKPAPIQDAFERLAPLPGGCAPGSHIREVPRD
MAPK8: Mitogen-activated protein kinase 8 (MAPK8, Homo sapiens, UniProt P45983)
Chain of UniProt P45983 (whole entry, looked up): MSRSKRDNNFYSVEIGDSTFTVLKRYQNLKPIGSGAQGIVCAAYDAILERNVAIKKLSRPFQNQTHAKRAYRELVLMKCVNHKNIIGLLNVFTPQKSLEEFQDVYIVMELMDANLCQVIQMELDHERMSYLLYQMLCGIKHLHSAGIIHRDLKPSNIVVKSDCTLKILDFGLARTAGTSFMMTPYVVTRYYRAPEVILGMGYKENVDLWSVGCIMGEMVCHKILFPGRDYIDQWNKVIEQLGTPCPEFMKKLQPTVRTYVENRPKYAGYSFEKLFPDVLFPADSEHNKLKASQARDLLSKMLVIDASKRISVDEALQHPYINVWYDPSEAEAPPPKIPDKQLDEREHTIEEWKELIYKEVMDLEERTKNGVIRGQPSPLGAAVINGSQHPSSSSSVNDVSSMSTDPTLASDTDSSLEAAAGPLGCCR
Dipeptidyl peptidase 8: Dipeptidyl peptidase 8 (Homo sapiens, UniProt Q6V1X1)
Chain of UniProt Q6V1X1 (whole entry, looked up): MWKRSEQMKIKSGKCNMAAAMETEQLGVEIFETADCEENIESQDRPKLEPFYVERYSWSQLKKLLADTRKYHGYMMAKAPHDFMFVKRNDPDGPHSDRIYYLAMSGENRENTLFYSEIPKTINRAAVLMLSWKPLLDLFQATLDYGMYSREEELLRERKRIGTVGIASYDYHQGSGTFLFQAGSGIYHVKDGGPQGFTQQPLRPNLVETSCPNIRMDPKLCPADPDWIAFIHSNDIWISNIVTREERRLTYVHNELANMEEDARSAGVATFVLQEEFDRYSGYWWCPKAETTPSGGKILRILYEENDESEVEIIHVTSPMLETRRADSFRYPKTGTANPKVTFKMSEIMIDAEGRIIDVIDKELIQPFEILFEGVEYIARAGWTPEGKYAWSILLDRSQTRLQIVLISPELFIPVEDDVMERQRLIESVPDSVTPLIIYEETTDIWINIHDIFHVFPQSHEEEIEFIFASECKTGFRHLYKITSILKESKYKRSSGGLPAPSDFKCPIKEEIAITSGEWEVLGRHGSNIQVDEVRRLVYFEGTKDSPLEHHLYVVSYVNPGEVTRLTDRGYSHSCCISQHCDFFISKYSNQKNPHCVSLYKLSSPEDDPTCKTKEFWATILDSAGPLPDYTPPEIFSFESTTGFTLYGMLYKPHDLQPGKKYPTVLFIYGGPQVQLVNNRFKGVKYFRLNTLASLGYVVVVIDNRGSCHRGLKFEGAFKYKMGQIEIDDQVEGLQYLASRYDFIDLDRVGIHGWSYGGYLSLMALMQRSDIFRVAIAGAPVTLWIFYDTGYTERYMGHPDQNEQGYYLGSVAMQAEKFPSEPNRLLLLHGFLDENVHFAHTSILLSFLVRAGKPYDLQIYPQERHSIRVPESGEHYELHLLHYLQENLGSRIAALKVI
rhodesain: Rhodesain (rhodesain, Trypanosoma brucei rhodesiense, UniProt Q95PM0)
Chain of UniProt P35968 (whole entry, looked up): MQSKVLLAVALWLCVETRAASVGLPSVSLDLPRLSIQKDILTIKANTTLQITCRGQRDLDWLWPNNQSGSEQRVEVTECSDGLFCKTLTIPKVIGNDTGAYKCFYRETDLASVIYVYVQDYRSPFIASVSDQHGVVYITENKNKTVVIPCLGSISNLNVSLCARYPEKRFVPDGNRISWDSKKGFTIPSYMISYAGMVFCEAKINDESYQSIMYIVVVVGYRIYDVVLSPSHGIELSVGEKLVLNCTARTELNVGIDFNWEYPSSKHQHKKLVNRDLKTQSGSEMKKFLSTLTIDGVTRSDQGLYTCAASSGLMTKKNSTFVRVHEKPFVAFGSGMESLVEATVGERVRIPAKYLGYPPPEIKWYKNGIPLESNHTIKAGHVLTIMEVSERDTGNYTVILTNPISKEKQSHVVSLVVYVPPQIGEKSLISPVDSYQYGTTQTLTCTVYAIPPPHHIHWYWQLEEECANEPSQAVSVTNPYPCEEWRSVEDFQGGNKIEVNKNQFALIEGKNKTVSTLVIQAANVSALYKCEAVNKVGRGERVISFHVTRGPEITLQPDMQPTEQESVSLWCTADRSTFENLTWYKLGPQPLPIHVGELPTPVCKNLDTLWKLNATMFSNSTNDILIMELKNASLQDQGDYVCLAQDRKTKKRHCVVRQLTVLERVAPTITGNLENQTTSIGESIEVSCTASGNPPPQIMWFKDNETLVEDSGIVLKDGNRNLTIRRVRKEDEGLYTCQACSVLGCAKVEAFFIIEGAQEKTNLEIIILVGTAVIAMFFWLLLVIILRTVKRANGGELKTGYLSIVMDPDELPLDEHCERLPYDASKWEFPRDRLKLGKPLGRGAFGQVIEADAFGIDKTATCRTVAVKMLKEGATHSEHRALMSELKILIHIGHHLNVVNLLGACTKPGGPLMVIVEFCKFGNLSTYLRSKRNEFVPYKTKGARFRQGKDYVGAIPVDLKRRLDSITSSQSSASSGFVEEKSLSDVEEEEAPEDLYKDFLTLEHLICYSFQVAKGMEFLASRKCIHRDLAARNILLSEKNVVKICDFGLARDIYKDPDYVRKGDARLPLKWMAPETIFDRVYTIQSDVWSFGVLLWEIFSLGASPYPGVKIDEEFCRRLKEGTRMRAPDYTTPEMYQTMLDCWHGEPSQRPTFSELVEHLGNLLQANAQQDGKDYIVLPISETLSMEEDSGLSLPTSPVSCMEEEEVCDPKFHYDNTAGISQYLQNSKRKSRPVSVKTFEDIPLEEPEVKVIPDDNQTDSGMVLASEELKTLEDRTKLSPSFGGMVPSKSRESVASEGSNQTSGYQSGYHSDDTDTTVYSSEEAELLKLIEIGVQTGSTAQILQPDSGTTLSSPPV
Chain of UniProt P14778 (whole entry, looked up): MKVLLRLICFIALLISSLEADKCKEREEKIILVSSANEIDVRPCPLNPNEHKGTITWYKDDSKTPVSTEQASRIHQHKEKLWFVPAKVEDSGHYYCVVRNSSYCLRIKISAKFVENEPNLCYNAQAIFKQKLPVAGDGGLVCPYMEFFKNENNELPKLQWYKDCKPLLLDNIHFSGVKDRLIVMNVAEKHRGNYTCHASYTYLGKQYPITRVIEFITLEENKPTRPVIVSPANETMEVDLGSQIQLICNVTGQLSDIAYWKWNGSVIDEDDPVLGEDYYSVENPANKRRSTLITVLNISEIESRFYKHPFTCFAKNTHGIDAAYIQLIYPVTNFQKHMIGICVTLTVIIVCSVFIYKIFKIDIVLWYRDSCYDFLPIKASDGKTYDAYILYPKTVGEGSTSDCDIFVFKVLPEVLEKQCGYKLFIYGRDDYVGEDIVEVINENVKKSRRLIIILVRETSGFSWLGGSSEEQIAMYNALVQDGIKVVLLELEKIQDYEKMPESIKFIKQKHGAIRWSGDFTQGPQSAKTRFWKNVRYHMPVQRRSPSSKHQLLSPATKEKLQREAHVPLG
Chain of UniProt Q9HB29 (whole entry, looked up): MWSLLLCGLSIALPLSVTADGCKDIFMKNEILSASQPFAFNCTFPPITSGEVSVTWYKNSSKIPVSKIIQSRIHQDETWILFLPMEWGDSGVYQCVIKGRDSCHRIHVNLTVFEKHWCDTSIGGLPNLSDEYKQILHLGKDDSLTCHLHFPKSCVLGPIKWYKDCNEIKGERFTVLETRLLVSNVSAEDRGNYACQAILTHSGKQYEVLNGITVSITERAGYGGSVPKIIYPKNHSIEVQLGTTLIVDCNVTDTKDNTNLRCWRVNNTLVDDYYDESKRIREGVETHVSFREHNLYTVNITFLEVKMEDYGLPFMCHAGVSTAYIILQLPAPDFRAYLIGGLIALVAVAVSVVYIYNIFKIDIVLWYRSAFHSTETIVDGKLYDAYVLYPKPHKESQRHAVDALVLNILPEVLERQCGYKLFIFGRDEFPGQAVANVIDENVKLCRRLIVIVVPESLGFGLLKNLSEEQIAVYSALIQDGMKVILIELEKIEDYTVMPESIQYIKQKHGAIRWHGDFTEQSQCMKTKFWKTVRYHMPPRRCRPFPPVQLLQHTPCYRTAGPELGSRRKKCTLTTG
Chain of UniProt P00747 (whole entry, looked up): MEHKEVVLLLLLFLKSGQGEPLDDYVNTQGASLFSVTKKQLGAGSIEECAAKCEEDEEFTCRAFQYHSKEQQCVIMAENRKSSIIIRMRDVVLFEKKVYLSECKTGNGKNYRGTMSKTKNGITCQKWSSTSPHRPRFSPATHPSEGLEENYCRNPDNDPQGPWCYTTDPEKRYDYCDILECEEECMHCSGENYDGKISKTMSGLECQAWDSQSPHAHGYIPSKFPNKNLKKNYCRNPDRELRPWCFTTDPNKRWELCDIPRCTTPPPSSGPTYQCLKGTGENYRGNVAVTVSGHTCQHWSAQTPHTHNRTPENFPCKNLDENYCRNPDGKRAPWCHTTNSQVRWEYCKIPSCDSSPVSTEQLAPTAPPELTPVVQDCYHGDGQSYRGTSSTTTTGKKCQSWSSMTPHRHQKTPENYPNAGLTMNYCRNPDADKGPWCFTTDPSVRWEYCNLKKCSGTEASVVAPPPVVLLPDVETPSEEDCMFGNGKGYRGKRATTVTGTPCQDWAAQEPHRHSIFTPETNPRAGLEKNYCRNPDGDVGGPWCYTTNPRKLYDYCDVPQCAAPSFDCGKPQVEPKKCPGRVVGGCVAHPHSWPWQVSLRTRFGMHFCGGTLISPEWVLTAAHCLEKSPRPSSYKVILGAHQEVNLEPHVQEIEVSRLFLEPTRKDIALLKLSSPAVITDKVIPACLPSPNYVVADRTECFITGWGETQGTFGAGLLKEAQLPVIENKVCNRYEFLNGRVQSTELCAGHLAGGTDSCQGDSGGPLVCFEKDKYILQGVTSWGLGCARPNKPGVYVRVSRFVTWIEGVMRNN

Under “log2 fold change”, `Cc1ncsc1-c1ccc(C(C)NC(=O)C2CC(O)CN2C(=O)C(NC(=O)CCCCCCCCCCN2CCCC(Nc3ncc(Cl)c(Nc4ccccc4S(=O)(=O)C(C)C)n3)C2)C(C)(C)C)cc1` (stereo not shown) is recorded as -1.28 (22Rv1; RNA-seq, refers to: SLF2 mRNA; concentration not given; reference: DMSO).
`N#Cc1cnc2sc(C(=O)O)cc2c1N1CCc2[nH]nc(C(=O)N[C@@H](CC(=O)NCCOCCN3CCOCC3)c3cccc(Br)c3)c2C1` gave a remaining activity of 88.1% (IL1R1 (Homo sapiens, UniProt P14778); IL-8 release, antagonist; A-431; 4000 µM, 18 h, added: IL-1β 5 ng/mL; reference: untreated).
`O=C(CCN(Cc1ccc2c(c1)OCO2)Cc1ccc2c(c1)OCO2)NO` has a remaining activity of 63 ± 5% (Astl; enzyme activity, inhibitor, fluorogenic; 0.25 µM).
`[Cu+2].c1cc2nc(c1)CNCc1cccc(n1)CNC2` gave an IC50 of 1550 nM (superoxide dismutase-like activity, McCord-Fridovich NBT; cell-free system; pH 7.8, added: xanthine/xanthine oxidase).
The remaining activity of `Cc1cc(NC(=O)c2cccc(NC(=O)/C(C#N)=C/C(C)(C)C)c2)ccc1Nc1nccc(-c2cccnc2)n1` is reported as 0.3 (Mitogen-activated protein kinase 8, phosphorylated (MAPK8, Homo sapiens, UniProt P45983); enzyme activity after dialysis, inhibitor; 10 µM, 1 days, unit not given; reference: no inhibitor).
`COc1cc(-c2cn(C)c(=O)c3cnccc23)cc(OC)c1CN(C)C` gave a ΔTm of 0.3 °C (Bromodomain-containing protein 3, BD2 (BRD3, Homo sapiens, UniProt Q15059)).
For `Cc1nn(-c2cccc(N)c2)c(=O)c2cnc(Nc3ccc(N4CCNCC4)cc3)nc12`, the IC50 was 435 nM (MAP4K4 (Homo sapiens, UniProt O95819); SelectScreen kinase).
The remaining activity of `COc1ccccc1-c1ccncc1C(=O)Nc1nnc(OCc2ccc(Cl)cc2)s1` is reported as 107% (Bifunctional 3'-5' exonuclease/ATP-dependent helicase WRN, residues 500-946 (WRN, Homo sapiens, UniProt Q14191); ATPase activity, ADP-Glo; 0.48 µM; reference: 0 µM cpd).
For `COC(=O)[C@@]1(Cc2ccccc2)C=C(C(=O)OC(C)(C)C)C(=O)CC1`, the fraction bound was -0.00733 (MAPK8; D-peptide binding, inhibitor, FP peptide displacement; 31.25 µM; lower is stronger displacement).
`O=C(CN(Cc1ccccc1)Cc1cccc(C(=O)O)c1)NO` gave a remaining activity of 96 ± 8% (Astl; enzyme activity, inhibitor, fluorogenic; 0.25 µM).
The remaining activity of `C[C@](C(=O)NC1CCOCC1)(c1cncnc1)N(C(=O)[C@H](F)Cl)c1ccc(OC(F)(F)Cl)cc1` is reported as 100% (Plasminogen (PLG, Homo sapiens, UniProt P00747); enzyme activity, inhibitor; 10 µM).
`CCC1(CC)C(=O)N(c2cccc(CN3CCN(Cc4cccc5ccccc45)CC3)c2)C1=O` gave a remaining activity of less than 5% (Dipeptidyl peptidase 8; enzyme activity, inhibitor; 5 µM).
`CC(C)[C@@H]1NC(=O)[C@H](Cc2ccccc2)NC(=O)CSC[C@@H](C(N)=O)NC(=O)[C@H](CCC(=O)O)NC(=O)[C@H](CO)NC(=O)[C@H](Cc2c[nH]c3cccc(Cl)c23)NC(=O)[C@H](C2CCCCC2)NC(=O)[C@H](C(C)C)NC(=O)[C@H](Cc2ccc(O)cc2)NC(=O)[C@H](CC(=O)O)NC(=O)[C@H](Cc2c[nH]c3ccccc23)NC(=O)[C@H](Cc2ccc(N)nc2)NC(=O)[C@H](Cc2c[nH]c3ccc(Cl)cc23)NC(=O)[C@H](CCC(=O)O)NC1=O` has a remaining activity of 97.7% (Interleukin-1 receptor-like 2 (IL1RL2, Homo sapiens, UniProt Q9HB29); reporter gene (SEAP), inhibitor, HEK-Blue IL-36R reporter; HEK-Blue IL-36R cells; 0.0017 µM, 6 h, added: IL-36β 0.3 ng/mL).
For `COC(=O)CN1CCCc2cc3cc(C(=O)NC(Cc4ccc(C)cc4)C(=O)NCC=CS(=O)(=O)c4ccccc4)c(=O)oc3cc21` (stereo not shown), the remaining activity was 12% (rhodesain; enzyme activity, inhibitor, fluorescence; 5 µM).
For `CCC1(CC)C(=O)N(c2cccc(CN3CCc4cc5c(cc4C3)OCO5)c2)C1=O`, the remaining activity was 12% (Dipeptidyl peptidase 8; enzyme activity, inhibitor; 5 µM).
The remaining activity of `O=C(CCN(Cc1ccc(Cl)c(O)c1F)Cc1ccc(Cl)c(O)c1F)NO` is reported as 46 ± 3% (Astl; enzyme activity, inhibitor, fluorogenic; 0.25 µM).
For `COc1ccc(NC(=O)c2c(Nc3ccccc3)sc(C(=O)N/N=C/c3ccc(OC)c(OC)c3)c2NC(C)=O)cc1`, the remaining activity was 96% (KDR (Homo sapiens, UniProt P35968); enzyme activity, inhibitor; 10 nM).
For `O=C(CCN(Cc1cccnc1)Cc1ccc(Cl)c(O)c1F)NO`, the remaining activity was 51 ± 5% (Astl; enzyme activity, inhibitor, fluorogenic; 5 µM).
With `COC(=O)C1(C)C=C(C(=O)OC(C)(C)C)C(=O)CC1` (stereo not shown) the fraction bound was 0.454 (MAPK8; D-peptide binding, inhibitor, FP peptide displacement; 125 µM; lower is stronger displacement).
`CC(=O)N1c2ccc(-c3ccc(CNC(=O)c4cn5cc(-c6cnc(N)nc6)nc(N6CCOCC6)c5n4)cc3)cc2CC[C@@H]1C` gave a remaining activity of 100% (ATM (Homo sapiens, UniProt Q13315); enzyme activity, inhibitor, radiometric; 1 µM).
With `CCCC[C@H](NC(=O)COCCOCCNC(=O)CN1CCN(CC(=O)O)CCN(CC(=O)O)CC1)C(=O)N[C@H]1CC(=O)NCCCC[C@@H](C(N)=O)NC(=O)[C@H](Cc2c[nH]c3ccccc23)NC(=O)[C@H](CCCNC(=N)N)NC(=O)[C@@H](Cc2ccccc2)NC(=O)[C@H](Cc2c[nH]cn2)NC1=O` [technetium-99m labelled] the tissue uptake was 0.17 ± 0.08 %ID/g (C57 mouse, spleen; intravenous, 0.037 MBq, 2 h).
For `COC1CN([C@H]2CC[C@H]([C@@]3(C)Oc4c(Cl)cc(C(=O)NCc5c(SC)cc(C)[nH]c5=O)c(C)c4O3)CC2)C1`, “log2 fold change” read 0.395 (RNA-seq, refers to: HPSE mouse homolog; mouse, HT-1376 xenograft, whole blood; dose not given; reference: vehicle).
`CN(Cc1cc(C2CC2)on1)C(=O)c1cccc(-c2ccc3c(c2)CCO3)c1` gave a remaining activity of 96.8% (acetoacetyl-CoA synthetase (Cryptococcus neoformans); enzyme activity, inhibitor; 15.6 µM).
`Nc1ncc(-c2cc(-c3cnn(CC(F)(F)F)c3)ncc2F)nc1C(=O)NC1CNCC(F)C1` (stereo not shown) has a remaining binding of 96% (CAMK2G; KINOMEscan; 1 µM; reference: DMSO control).
`O=C(CN(Cc1ccc(Cl)c(O)c1F)Cc1ccc(Cl)c(O)c1F)NO` has a remaining activity of 72 ± 4% (Astl; enzyme activity, inhibitor, fluorogenic; 0.25 µM).
The remaining activity of `Cc1ccc(C[C@H](NC(=O)CN2CCCc3cc4cc(C(=O)NCCNC(=O)CCCC[C@@H]5SC[C@@H]6NC(=O)N[C@@H]65)c(=O)oc4cc32)C(=O)NC/C=C/S(=O)(=O)c2ccccc2)cc1` is reported as 7% (rhodesain; enzyme activity, inhibitor, fluorescence; 5 µM).
`COc1c(Cl)ccc(CN(CCC(=O)NO)Cc2ccc(Cl)c(OC)c2F)c1F` gave a remaining activity of 10 ± 4% (Astl; enzyme activity, inhibitor, fluorogenic; 5 µM).
`COC(=O)[C@@]1(C)C=C(C(=O)Nc2cccc(C(=O)Nc3ccc(Nc4nccc(-c5cccnc5)n4)c(C)c3)c2)C(=O)CC1` gave a remaining activity of 0.932 and 0.941 and 0.967 (MAPK1 (Homo sapiens, UniProt P28482); enzyme activity, inhibitor; 0.06097 µM, unit not given; reference: vehicle).

A few entries again:
For `Cc1nn(-c2cccc(N)c2)c(=O)c2cnc(Nc3ccc(N4CCNCC4)cc3)nc12`, the IC50 was 435 nM (MAP4K4 (Homo sapiens, UniProt O95819); SelectScreen kinase).
The remaining activity of `C[C@](C(=O)NC1CCOCC1)(c1cncnc1)N(C(=O)[C@H](F)Cl)c1ccc(OC(F)(F)Cl)cc1` is reported as 100% (Plasminogen (PLG, Homo sapiens, UniProt P00747); enzyme activity, inhibitor; 10 µM).
The remaining activity of `COc1ccccc1-c1ccncc1C(=O)Nc1nnc(OCc2ccc(Cl)cc2)s1` is reported as 107% (Bifunctional 3'-5' exonuclease/ATP-dependent helicase WRN, residues 500-946 (WRN, Homo sapiens, UniProt Q14191); ATPase activity, ADP-Glo; 0.48 µM; reference: 0 µM cpd).
